Results from different studies.
A part holds a random share of what one study measured. Substitutions count along the parent as printed.
UniProt Q9H422, sequence (whole entry, looked up): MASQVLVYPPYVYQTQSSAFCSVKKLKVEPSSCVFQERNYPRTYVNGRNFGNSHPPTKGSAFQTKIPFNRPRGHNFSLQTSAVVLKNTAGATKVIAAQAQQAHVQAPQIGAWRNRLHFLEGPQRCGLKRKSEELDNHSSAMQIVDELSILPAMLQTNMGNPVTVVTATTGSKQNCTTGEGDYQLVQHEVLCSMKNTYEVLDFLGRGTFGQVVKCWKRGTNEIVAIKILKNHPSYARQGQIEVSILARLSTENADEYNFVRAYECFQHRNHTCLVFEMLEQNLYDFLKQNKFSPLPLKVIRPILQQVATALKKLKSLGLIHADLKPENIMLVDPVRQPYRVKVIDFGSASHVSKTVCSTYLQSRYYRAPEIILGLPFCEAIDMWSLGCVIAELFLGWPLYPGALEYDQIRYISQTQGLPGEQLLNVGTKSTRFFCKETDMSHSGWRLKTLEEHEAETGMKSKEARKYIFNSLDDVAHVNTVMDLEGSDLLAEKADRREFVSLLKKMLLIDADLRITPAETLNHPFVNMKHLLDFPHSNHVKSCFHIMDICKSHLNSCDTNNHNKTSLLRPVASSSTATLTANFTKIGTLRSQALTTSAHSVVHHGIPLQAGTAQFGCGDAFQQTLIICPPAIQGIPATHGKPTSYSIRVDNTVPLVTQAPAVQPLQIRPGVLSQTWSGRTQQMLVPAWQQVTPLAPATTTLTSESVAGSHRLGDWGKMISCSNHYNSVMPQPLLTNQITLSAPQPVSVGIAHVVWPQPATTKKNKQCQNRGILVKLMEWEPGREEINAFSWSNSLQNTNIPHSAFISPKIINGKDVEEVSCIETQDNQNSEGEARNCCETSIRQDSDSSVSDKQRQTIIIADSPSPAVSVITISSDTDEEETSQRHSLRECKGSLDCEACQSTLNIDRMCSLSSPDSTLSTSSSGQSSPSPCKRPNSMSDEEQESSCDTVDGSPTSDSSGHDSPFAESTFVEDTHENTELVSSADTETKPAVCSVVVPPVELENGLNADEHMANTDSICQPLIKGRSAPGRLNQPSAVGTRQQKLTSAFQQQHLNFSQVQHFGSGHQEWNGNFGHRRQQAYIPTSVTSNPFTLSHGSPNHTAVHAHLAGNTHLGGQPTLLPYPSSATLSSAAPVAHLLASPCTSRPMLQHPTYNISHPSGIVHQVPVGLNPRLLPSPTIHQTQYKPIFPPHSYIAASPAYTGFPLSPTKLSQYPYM

Block 1
Target: Prothrombin, mature alpha-thrombin (F2, Homo sapiens, UniProt P00734)
Technique: aptamer microarray, sandwich
Molecule type: DNA with 2'F-ANA
Medium: in vitro
Tested at: 200 nM
Setting: whole 15-mer aptamer, many near background
With: Cy3 exosite-II aptamer, 400 nM
Direction: higher = stronger binding
Sequence: GGTTGGTGTGGTTGG
| Modification | mean fluorescence intensity |
| --- | --- |
| 2'F-ANA at 3 6 8 9 10 11 13 14 15 | 347 a.u. |
| 2'F-ANA at 1 2 3 7 8 12 14 | 123 a.u. |
| 2'F-ANA at 3 4 10 11 14 15 | 198 a.u. |
| 2'F-ANA at 1 2 4 8 10 12 14 15 | 51.5 a.u. |
| 2'F-ANA at 4 6 7 9 10 11 13 14 | 79.5 a.u. |
| 2'F-ANA at 3 4 5 6 8 11 12 13 14 15 | 52.6 a.u. |
| 2'F-ANA at 1 3 5 6 12 14 | 45.4 a.u. |
| 2'F-ANA at 1 2 5 6 9 10 14 15 | 62 a.u. |

Block 2
Target: CCNA1, cyclin fold, Cln2 fusion (human)
Technique: yeast growth competition, sequencing
Medium: yeast
Setting: weak parent motif
Relative to: not given
Direction: higher = stronger binding
Starting sequence: CDC25A docking peptide (human); PPHRRRLLFACSP; partner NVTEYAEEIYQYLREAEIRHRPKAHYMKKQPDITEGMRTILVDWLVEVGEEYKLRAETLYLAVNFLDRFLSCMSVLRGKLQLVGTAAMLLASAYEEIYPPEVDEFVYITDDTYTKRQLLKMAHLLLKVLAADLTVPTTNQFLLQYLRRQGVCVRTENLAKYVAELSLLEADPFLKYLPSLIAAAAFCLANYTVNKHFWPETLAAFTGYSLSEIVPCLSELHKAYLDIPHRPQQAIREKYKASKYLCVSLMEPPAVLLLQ
| Change | normalised enrichment score |
| --- | --- |
| PPHRRRLLFACSN [P13N] | 0.709 |
| PPHCRRLLFACSP [R4C] | 0.449 |
| PPHRRRLLFVCSP [A10V] | -0.00296 |
| PPHRRRLLFACSA [P13A] | 0.32 |
| PPSRRRLLFACSP [H3S] | 0.518 |
| PPHQRRLLFACSP [R4Q] | 0.407 |
| PPHRRRLLFACSI [P13I] | 0.265 |
| PPHRRRLLFACRP [S12R] | 0.349 |

Block 3
Target: MAFG, bZIP domain (human)
Technique: DHFR protein complementation
Medium: yeast
Setting: single substitutions, most at no-binding floor
Relative to: wild-type JUN-FOS pair
Direction: higher = stronger binding
Starting sequence: JUN, bZIP domain (human); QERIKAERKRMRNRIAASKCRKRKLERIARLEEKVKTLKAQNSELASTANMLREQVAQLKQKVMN; partner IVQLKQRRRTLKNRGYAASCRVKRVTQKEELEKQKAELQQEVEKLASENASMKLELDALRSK
| Change | binding fitness |
| --- | --- |
| L59S | -1.51 natural log |
| Q55I | -1.31 natural log |
| L38T | -1.51 natural log |
| V35K | -1.34 natural log |
| A40T | -1.41 natural log |
| I28M | -1.55 natural log |
| I28F | -1.49 natural log |
| M51V | -1.41 natural log |

Other studies, line by line
| Compound | target | assay | conditions | quantity | value |
| --- | --- | --- | --- | --- | --- |
| O=C(NS(=O)(=O)c1ccc(NCC2CCOCC2)c([N+](=O)[O-])c1)c1ccc(N2CCN(Cc3ccc(C(F)(F)F)cc3-c3ccc(Cl)cc3)CC2)cc1Oc1cnc2[nH]ccc2c1 | Homeodomain-interacting protein kinase 3 (HIPK3, Homo sapiens, UniProt Q9H422) | cell-free assay, competition with immobilised ligand | 1 µM | remaining binding | 100% |

Some of these lines once more (block 1):
| Modification | mean fluorescence intensity |
| --- | --- |
| 2'F-ANA at 3 6 8 9 10 11 13 14 15 | 347 a.u. |
| 2'F-ANA at 4 6 7 9 10 11 13 14 | 79.5 a.u. |
| 2'F-ANA at 1 3 5 6 12 14 | 45.4 a.u. |
| 2'F-ANA at 1 2 3 7 8 12 14 | 123 a.u. |
